Published values collected from several papers.
Lines come from different studies, so protocols differ. Values joined by “and” are separate records of one study, mostly repeats; a detail may differ. ± marks the error that the study gave.
USP49 ZnF-UBD domain: Ubiquitin carboxyl-terminal hydrolase 49, ZnF-UBD domain (USP49, Homo sapiens, UniProt Q70CQ1)
UniProt Q70CQ1, sequence (whole entry, looked up): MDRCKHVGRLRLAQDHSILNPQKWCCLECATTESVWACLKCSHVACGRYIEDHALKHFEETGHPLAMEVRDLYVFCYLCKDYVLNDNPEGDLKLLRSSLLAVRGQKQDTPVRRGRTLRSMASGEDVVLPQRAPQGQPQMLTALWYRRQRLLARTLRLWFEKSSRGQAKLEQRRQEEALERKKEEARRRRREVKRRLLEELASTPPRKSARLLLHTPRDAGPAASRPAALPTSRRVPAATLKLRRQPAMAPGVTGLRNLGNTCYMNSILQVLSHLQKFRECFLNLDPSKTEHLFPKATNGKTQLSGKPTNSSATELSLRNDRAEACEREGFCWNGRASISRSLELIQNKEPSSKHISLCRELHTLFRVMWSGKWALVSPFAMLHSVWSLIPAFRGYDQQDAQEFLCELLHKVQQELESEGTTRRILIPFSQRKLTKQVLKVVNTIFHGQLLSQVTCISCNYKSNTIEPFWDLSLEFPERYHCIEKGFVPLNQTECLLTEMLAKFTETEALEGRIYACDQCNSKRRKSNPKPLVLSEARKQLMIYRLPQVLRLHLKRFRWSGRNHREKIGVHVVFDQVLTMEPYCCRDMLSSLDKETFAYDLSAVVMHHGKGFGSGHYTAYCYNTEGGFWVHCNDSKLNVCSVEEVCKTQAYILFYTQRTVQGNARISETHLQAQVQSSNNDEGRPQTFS

SMILES	target or system	test	system	conditions	scale	endpoint	value
C=CC(=O)Nc1cc(Nc2nccc(-c3cn(C4CC4)c4ccccc34)n2)c(OC)cc1N(C)CCN(C)C	–	–	BALB/c nude mouse, LU0387 xenograft, serum	oral, 40 mg/kg	–	TCHO level	4.63 ± 0.47 mmol/L
C[C@H](NC(=O)[C@H](CCC(N)=O)NC(=O)[C@H](C)NC(=O)[C@H](CCCNC(=N)N)NC(=O)[C@H](CCC(N)=O)NC(=O)[C@H](C)NC(=O)[C@H](CCCNC(=N)N)NC(=O)[C@H](CCC(N)=O)NC(=O)[C@H](C)NC(=O)[C@H](CCC(N)=O)NC(=O)[C@H](CCCNC(=N)N)NC(=O)[C@H](C)NC(=O)[C@H](CCC(N)=O)NC(=O)[C@H](CCCNC(=N)N)NC(=O)[C@H](C)NC(=O)[C@H](CCC(N)=O)NC(=O)[C@H](C)NC(=O)[C@H](CCCNC(=N)N)NC(=O)[C@H](CCC(N)=O)NC(=O)[C@H](C)NC(=O)[C@H](CCCNC(=N)N)NC(=O)[C@H](CO)NC(=O)[C@H](Cc1ccc(O)c(I)c1)NC(=O)CNC(=O)CNC(=O)CN)C(=O)N[C@@H](CCCNC(=N)N)C(=O)N[C@@H](CCC(N)=O)C(=O)N[C@@H](C)C(=O)N[C@@H](CCCNC(=N)N)C(=O)N[C@@H](CCC(N)=O)C(=O)O [iodine-125 labelled]	–	–	H2/IL-6 transgenic BALB/c mice, both sexes, lower intestine	intravenous, 4 h	–	tissue uptake	8.2 %ID/g
C=CCn1c(=O)c2cnc(Nc3ccc(N4CCN(C)CC4)cc3)nc2n1-c1ccc2c(n1)[C@@](O)(CC)CC2	–	–	female NOD/SCID mouse OVCAR-3 xenograft, plasma	oral, 90 mg/kg once daily, :2	–	AUC(0-24)	43700 ng·h/mL
Cc1ccc(O)c(-n2nc3ccccc3n2)c1	–	–	human aged 3-6 years	concentration not given, sunscreen, 95th percentile	–	daily dermal exposure dose	5140 ng/kg/day
Cc1ccc(N(C)C(=O)/C=C/c2ccco2)cc1	–	hot plate test	mice	oral, 30 mg/kg daily for 7 days, 45 min, day 8	–	licking latency	15.1 ± 0.4 s
CN(C)CCCN1c2ccccc2CC(O)c2ccccc21 (stereo not shown)	–	reverse phase LC, C18	acetonitrile gradient, 0.1% formic acid	converted from retention time	reference: Valko CHI standards	chromatographic hydrophobicity index	46.3
O=C(O)CCC(=O)Nc1cccc2ccccc12	USP49 ZnF-UBD domain	–	–	–	–	Kd	> 1000 µM
CC(C)(C)c1ccc([C@H]2COC[C@@H](c3ccc(C#N)cc3)N2)cc1	–	shake-flask, 1-octanol/buffer	–	pH 7.4	–	logD	> 4.7
Cc1cc(NC2CCN(C(=O)OC3CCN(C(=O)/C=C/CN(C)C)C3)CC2)n2ncc(C(C)C)c2n1 (stereo not shown)	–	Phase I dose escalation CTCAE v4.0, item: abdominal pain	patients with advanced solid tumours	dose not given, Total dosing any grade	–	patients with adverse event	26%
CCn1cc(C(=O)N2CCOCC2)c(=O)c2cc(NC3Cc4ccccc4C3)cnc21	–	–	human female, fed, plasma	oral, 900 mg twice daily, day 1, tablet, arithmetic mean	–	Cmax	5230 ng/mL
COc1ccc(NC(=O)N2CCCCN3[C@H](COCCC(=O)O)[C@H](c4ccc(C#Cc5ccccc5)cc4)[C@@H]3C2)cc1	–	–	CD-1 mouse	oral, dose not given	–	oral bioavailability	63%
CS(=O)(=O)c1ccc(NC(=O)CSc2nnc(-c3ccccc3F)n2-c2ccccc2)cc1	–	–	octanol/buffer	pH 7.4	–	logD	1.69
CCN1/C(=C/C(C)=O)Sc2ccc(F)cc21	–	–	cynomolgus monkey	oral, 30 mg/kg, 4 h post-dose	reference: pre-dose	QTc interval change	100 ± 3.5%
CCOC(=O)N1C[C@@H](C2CCN(C(=O)OCc3ccccc3)CC2)N[C@@H](C(CC)CC)C1	–	shake-flask, 1-octanol/buffer	–	pH 7.4	–	logD	> 4.7
C1CCc2c(c(N3CCOCC3)nc3sc4c(N5CCNCC5)nnnc4c23)C1	–	UHPLC-MS peak area	human liver microsomes	1 µM, 15 min, pH 7.4	–	metabolite share of drug-related material	81.7%
CNc1cc[n+](CCNC(=O)c2ccn3c(-c4c(C)noc4C)cnc3c2)cc1.[Cl-]	–	–	aqueous buffer	initial, pH 7	–	largest degradation product	not detected
CCc1cc(C(=O)NC)c2nccc(N3CCc4c(cc(Cn5ccnc5)cc4-c4cn(C)nc4C(F)(F)F)C3=O)c2c1	–	–	Sprague Dawley rats	oral, 100 mg/kg once daily, 7 days	reference: vehicle	serum PLT change	9.51%
C[C@@H](NC(=O)N1C(=O)[C@H](Cc2ccnc(N)c2)[C@H]1C(=O)O)C1CCCCC1	–	UPLC-MS/MS	healthy adult Chinese volunteers, plasma	continuous intravenous infusion, 0.6 mg/kg/h, day 6 of 5-day infusion, mean	–	CL	5.55 mL/min/kg
Cc1ccc([C@@H]2COC[C@H](c3ccc(C(C)(C)C)cc3)N2)cc1	–	shake-flask, 1-octanol/buffer	–	pH 7.4	–	logD	> 4.7
CC(C)C[C@H](NC(=O)[C@H]1O[C@@H]1C(=O)O)C(=O)NCCCCN=C(N)N	–	–	PBS	100 µM, 23 h, pH 7.45, 37 °C, with: cysteine 10 mM	–	cysteine adduct formation	68%
Cc1nc2ccc(OCc3ccc(C(F)(F)F)cc3)cc2[nH]1	–	–	Balb/c mouse, male, lungs	oral, 10 mg/kg, 4 h	–	tissue concentration	1740 ± 276 ng/g
FC(F)(F)c1ccc(CNc2ccc(Cc3c[nH]c4ncc(Cl)cc34)cn2)cn1	–	item: blood alkaline phosphatase increased	patients with advanced solid tumours	oral, dose not given, grade 3 and 4, possibly related to drug	–	adverse event incidence	2%
C=CC(=O)NC1CCN(c2ncc3ncnc(Nc4ccc(Oc5ccc6c(c5)ncn6C)c(C)c4)c3n2)CC1	–	–	healthy male volunteers	intravenous then oral, dose not given, 1 week, oral 2 h after infusion	–	subjects with drug-related adverse events	14%

SMILES	target or system	test	system	conditions	scale	endpoint	value
COc1c(N2C[C@@H]3CCCN[C@@H]3C2)c(F)cc2c(=O)c(C(=O)O)cn(C3CC3)c12	–	–	healthy volunteers	400 mg	–	subjects with discoloured faeces	3%
Cl.[2H]C([2H])([2H])CC(=O)c1cnc(NC(=O)C2CC2)cc1Nc1cccc(-c2ncn(C([2H])([2H])[2H])n2)c1OC	–	–	human, fasted, plasma	oral, 25 mg, single dose, liquid formulation	–	Vz/F	148 L
O=C(O)CCc1ccccc1	USP49 ZnF-UBD domain	–	–	–	–	Kd	172 µM
O=C(N/N=C/c1ccccc1O)c1ccncc1	–	–	ADS buffer	115 µM, 7 days, -80 °C, long-term storage	–	stability	99%
CC(C)(C(=O)N1CCOc2c(C#N)cncc2C1)C(F)F	–	item: medical device site dermatitis	healthy humans, both sexes	oral, 40 mg single dose	–	subjects with TEAE	0%
COc1ccc2[nH]cc(CCNC(=O)Nc3ccc(Cl)c(Cl)c3)c2c1	–	–	octanol/buffer	pH 7.4	–	logD	5.03
C=CCN1CC(=O)N2[C@@H](Cc3ccc(O)cc3F)C(=O)N(Cc3cccc(N4CC(N5CCN(CC)CC5)C4)n3)C[C@@H]2N1C(=O)NCc1ccccc1	–	–	advanced solid tumour patients	oral, 45 mg twice daily, any grade, dose-escalation	–	treatment-related diarrhoea	0%
CCCCCN1C[C@H](O)[C@@H](O)[C@H](O)[C@@H]1CO	–	LC-MS/MS	Hexb-/- mice, total, brain	300 mg/kg/day	–	geometric mean brain concentration	271 ng/g
O=C[C@H]([18F])[C@@H](O)[C@H](O)[C@H](O)CO	–	–	Kunming mice, turpentine inflammation, brain	intravenous, 0.74 MBq, 60 min	–	tissue uptake	4.37 ± 0.25 %ID/g
CC[C@@H]1CN(C(=O)NCC(F)(F)F)C[C@@H]1c1cnc2cnc3[nH]ccc3n12	–	population PK modelling	human	oral, immediate-release formulation, outliers re-estimated	–	absorption lag time	0.188 h
CC(C)(C)OC[C@@H]1C(=O)NCCN1C(=O)C[C@H](N)Cc1cc(F)c(F)cc1F	–	–	human, male, plasma	oral, steady state, DP treatment	–	Vdss/F	2010 ± 260 L
CNCCOC12CC3(C)CC(C)(CC(Cn4ncc(-c5ccc(N6CCc7cccc(C(=O)Nc8nc9ccccc9s8)c7C6)nc5C(=O)O)c4C)(C3)C1)C2	–	–	beagle dog, male, anaesthetised	intravenous bolus, 0.03 mg/kg, 135 min	reference: baseline	dP/dt at 50 change	-10%
C/C=C/C[C@@H](C)C(=O)[C@H]1C(=O)N[C@@H](C(C)C)C(=O)N(C)CC(=O)N(C)[C@@H](CC(C)C)C(=O)N[C@@H](C(C)C)C(=O)N(C)[C@@H](CC(C)C)C(=O)N[C@@H](C)C(=O)N[C@H](C)C(=O)N(C)[C@@H](CC(C)C)C(=O)N(C)[C@@H](CC(C)C)C(=O)N(C)[C@@H](C(C)C)C(=O)N1C	–	–	Sprague Dawley rat, plasma	intravenous infusion, 0.09 mg/h/kg, 4 h, 4.5 h constant infusion	–	free plasma concentration	32.3 ng/mL
CC1(C)OC[C@H](c2ccc(O)cc2)N[C@@H]1c1ccc(-c2ccccc2)cc1	–	shake-flask, 1-octanol/buffer	–	pH 7.4	–	logD	> 4.7
C[C@H]1Oc2cc(cnc2N)-c2c(nn(C)c2C#N)CN(C)C(=O)c2ccc(F)cc21	–	population PK	patients with normal hepatic function, plasma	oral, 100 mg, single dose, NCI classification	–	CL	149 mL/min
c1ccc(CN2CCCN3CCN(Cc4ccccc4)CCCN(CC2)Cc2cccc(n2)C3)cc1	–	–	64Cu complex in rat plasma	12 h, 37 °C	–	intact complex	98%
C[C@@]1(c2cc(NC(=O)c3ccc(C#N)cn3)ccc2F)C=CSC(N)=N1	–	–	elderly humans, both sexes, plasma	oral, 150 mg single dose	–	dose-normalised AUC(0-last)	95.5 ng·h/mL
C[C@@H](c1ncncc1F)[C@](O)(Cn1cncn1)c1ccc(F)cc1F	–	–	human	oral, 200 mg, drug interaction trial	–	grade 2 TEAE	0%
COc1cc2c3c(n(CCCN4CCOCC4)c(=O)c2cc1OC)-c1cc2c(cc1C3=O)OCO2	–	–	beagle dog, plasma	intravenous infusion, 10 mg/m^2, 1 h infusion	–	clearance	30 to 50 L/h/m²
Oc1ccc(/C=C/c2cc(O)cc(O)c2)cc1	–	–	rat, azoxymethane-injected, blood at sacrifice	100 mg/kg	–	total protein	6.5 g/dL and 6.6 g/dL
O=C(Cn1nc(-c2cccc([N+](=O)[O-])c2)c2ccccc2c1=O)NCC1CCCO1 (stereo not shown)	–	–	octanol/buffer	pH 7.4	–	logD	2.29
CC(=O)N(C)C1CCN(c2cc(F)cc(NC(=O)c3cc4c(F)ccc(C)c4[nH]3)c2)C1 (stereo not shown)	–	–	CD1 mouse, plasma	intravenous, 1 mg/kg, 0.167 h	–	plasma concentration	785 ng/mL
O=C(O)CCC(=O)O.[2H]C([2H])([2H])Oc1cc(C)c2[nH]ccc2c1CN1CC[C@@H](C2CC2)C[C@H]1c1ccc(C(=O)O)cc1	–	multiple ascending dose	healthy Chinese subjects	300 mg once daily	–	subjects with TEAE Acne	0%
